Assay results of several laboratories.
Each line is one published result; not all experiments were run side by side. ± marks the error that the study gave.

The tissue uptake of `CCCC[C@H]1C(=O)N(C)[C@@H](CCCC)C(=O)N[C@@H](CCCNC(=O)CN2CCN(CC(=O)O)CCN(CC(=O)O)CCN(CC(=O)O)CC2)C(=O)N[C@H](C(=O)NCC(N)=O)CSCC(=O)N[C@@H](Cc2ccc(O)cc2)C(=O)N(C)[C@@H](C)C(=O)N[C@@H](CC(N)=O)C(=O)N2CCC[C@H]2C(=O)N[C@@H](Cc2c[nH]cn2)C(=O)N[C@@H](CC(C)C)C(=O)N(C)CC(=O)N[C@@H](Cc2c[nH]c3ccccc23)C(=O)N[C@@H](CO)C(=O)N[C@@H](Cc2c[nH]c3ccccc23)C(=O)N1C` [gallium-68 labelled] is reported as 4.47 ± 1.7 %ID/g (NOD/SCID mice with CHO-hPD-L1 xenograft, spleen; 120 min post injection).
For `CC[C@H](C)[C@H](NC(=O)[C@H](CCCNC(=N)N)NC(=O)[C@H](CCCCN)NC(=O)[C@H](Cc1ccc(O)cc1)NC(=O)[C@H](CC(=O)O)NC(=O)[C@H](C)NC(=O)CNC(=O)CCOCCOCCOCCNC(=O)CN1CCN(CC(=O)O)CCN(CC(=O)O)CCN(CC(=O)O)CC1)C(=O)N[C@H](C(=O)N[C@@H](CC(C)C)C(=O)N[C@@H](CCCCN)C(=O)N[C@H](C(=O)N[C@@H](CC(N)=O)C(N)=O)C(C)C)[C@@H](C)O` [copper-64 labelled], the tissue uptake was 0.471 ± 0.074 %ID/g (ex vivo gamma counting; C57BL/6J male mice, B16-F10 tumour, pancreas; intravenous, 1.85 MBq, 40 min).
For `O=C1NC2(CC2)COc2ncc(F)cc2[C@H]2COCCN2c2ccn3ncc1c3n2`, “aspartate aminotransferase activity” read 92.6 ± 11.7 U/L (Sprague-Dawley rat, male, serum; oral, 5 mg/kg/day, 4 weeks daily, end of recovery period).
For `Cc1ccccc1-c1ccc(-c2nc(-c3ccc(CN(C)CCCC(=O)O)c([18F])c3)no2)cc1C(F)(F)F`, the tissue uptake was 0.06 ± 0.03 %ID/g (male Sprague-Dawley rat, blood; 120 min).
`CC[C@H](C)[C@H](NC(=O)[C@H](CCCNC(=N)N)NC(=O)[C@H](CCCCN)NC(=O)[C@H](Cc1ccc(O)cc1)NC(=O)[C@H](CC(=O)O)NC(=O)[C@H](C)NC(=O)CNC(=O)CCOCCOCCOCCNC(=O)CN1CCN(CC(=O)O)CCN(CC(=O)O)CCN(CC(=O)O)CC1)C(=O)N[C@H](C(=O)N[C@H](C(=O)N[C@@H](CCCCN)C(=O)N[C@H](C(=O)N[C@@H](CC(N)=O)C(N)=O)C(C)C)C(C)C)[C@@H](C)O` [copper-64 labelled] gave a tissue uptake of 4.75 ± 0.087 %ID/g (ex vivo gamma counting; C57BL/6J male mice, B16-F10 tumour, liver; intravenous, 1.85 MBq, 40 min).
The tissue uptake of `CC[C@H](C)[C@H](NC(=O)[C@H](CCCCN)NC(=O)CNC(=O)[C@H](CC(C)C)NC(=O)[C@H](Cc1ccccc1)NC(=O)[C@H](CCCCN)NC(=O)[C@H](CO)NC(=O)[C@H](Cc1ccccc1)NC(=O)[C@H](Cc1c[nH]c2ccccc12)NC(=O)[C@H](CCC(N)=O)NC(=O)[C@@H](NC(=O)[C@H](Cc1ccccc1)NC(=O)CCCCCNC(=O)CN1CCN(CC(=O)O)CCN(CC(=O)O)CCN(CC(=O)O)CC1)C(C)C)C(=O)N[C@@H](CCC(=O)O)C(=O)N1CCC[C@H]1C(=O)N[C@@H](CC(=O)O)C(=O)N[C@H](C(=O)N[C@@H](CO)C(=O)N[C@@H](CCC(N)=O)C(=O)N[C@H](C(=O)N[C@@H](CCC(N)=O)C(=O)N[C@@H](CC(=O)O)C(=O)N1CCC[C@H]1C(=O)N[C@@H](CC(N)=O)C(=O)N[C@@H](CC(=O)O)C(=O)N[C@@H](CCC(N)=O)C(=O)N[C@@H](Cc1ccc(O)cc1)C(=O)N[C@@H](CCC(=O)O)C(=O)N1CCC[C@H]1C(=O)N[C@@H](Cc1ccccc1)C(=O)O)C(C)C)C(C)C` [copper-64 labelled] is reported as 0.39 ± 0.03 %ID/g (C57BL/6 male mouse, tumour-naive, brain; 4 h).
The tissue uptake of `CN1Cc2cc(Cl)ccc2-n2c(nnc2C2CCN(c3cccc([18F])n3)CC2)C1` is reported as 4.17 ± 1.37 %ID/g (C57BL/6 mouse male, spleen; intravenous, dose not given, 30 min, together with: blocking agent 10 mg/kg).
With `CCOP(=O)([O-])CNC(=O)CN1CCN(CC(=O)NCP(=O)([O-])OCC)CCN(CC(=O)NCP(=O)([O-])OCC)CCN(CC(=O)NCP(=O)([O-])OCC)CC1.[177Lu+3]` the tissue uptake was 0.002 ± 0.001 % injected dose/g (Sprague-Dawley rat, bone; intravenous (tail vein), dose not given, 2 h).
The tissue uptake of `CSCC[C@H](NC(=O)CNC(=O)[C@H](CCCCN)NC(=O)[C@H](CC(C)C)NC(=O)[C@@H]1CCCN1C(=O)[C@H](CO)NC(=O)[C@H](Cc1c[nH]cn1)NC(=O)[C@H](Cc1c[nH]c2ccccc12)NC(=O)[C@H](CCCNC(=N)N)NC(=O)[C@H](CC(C)C)NC(=O)[C@H](CCCNC(=N)N)NC(=O)[C@H](Cc1c[nH]c2ccccc12)NC(=O)[C@H](CS)NC(=O)CCCCCNC(=O)CN1CCN(CC(=O)O)CCN(CC(=O)O)CCN(CC(=O)O)CC1)C(=O)O` [copper-64 labelled] is reported as 2.19 ± 0.2 %ID/g (PET imaging; BALB/c nude mice, tumor; intravenous, dose not given, 4 h, Huh-7 tumour-bearing).
The tissue uptake of `CC(C)C[C@@H](NC(=O)[C@@H](CCCNC(=N)N)NC(=O)[C@@H](Cc1c[nH]cn1)NC(=O)[C@@H](Cc1c[nH]c2ccccc12)NC(=O)[C@@H](Cc1c[nH]cn1)NC(=O)[C@@H](Cc1ccccc1)NC(=O)[C@H](NC(=O)[C@@H](Cc1ccc(O)cc1)NC(=O)CNC(=O)CNC(=O)CCOCCOCCOCCNC(=O)CN1CCN(CC(=O)O)CCN(CC(=O)O)CC1)[C@H](C)O)C(=O)N[C@H](CC(N)=O)C(=O)N1CCC[C@@H]1C(=O)O` [gallium-68 labelled] is reported as 0.54 ± 0.26 %ID/g (gamma counting; C57BL/6 mice, male, bone; intravenous, 1.85 MBq, 60 min).
`C[C@H](O)[C@@H](NC(=O)[C@H]1CCCN1C(=O)[C@@H](CCCCN)NC(=O)[C@@H](CO)NC(=O)[C@@H](Cc1ccc(O)cc1)NC(=O)[C@@H](CC(N)=O)NC(=O)CCOCCOCCOCCNC(=O)CN1CCN(CC(=O)O)CCN(CC(=O)O)CCN(CC(=O)O)CC1)C(=O)N[C@H](CC(=O)O)C(=O)N[C@H](CCCNC(=N)N)C(=O)N[C@H](CCC(N)=O)C(=O)N[C@H](Cc1ccc(O)cc1)C(=O)N[C@H](Cc1c[nH]cn1)C(=O)N[C@H](Cc1ccccc1)C(N)=O` [gallium-68 labelled] gave a tissue uptake of 0.89 ± 0.19 %ID/g (BALB/c nude mice U-87 MG tumour, tumor; intravenous, 1.85 MBq, 2 h, radiolabelled).
